Results collected from several papers.
A part holds a random share of what one study measured. Positions count from the first letter of the parent shown.
UniProt P11802, sequence (whole entry, looked up): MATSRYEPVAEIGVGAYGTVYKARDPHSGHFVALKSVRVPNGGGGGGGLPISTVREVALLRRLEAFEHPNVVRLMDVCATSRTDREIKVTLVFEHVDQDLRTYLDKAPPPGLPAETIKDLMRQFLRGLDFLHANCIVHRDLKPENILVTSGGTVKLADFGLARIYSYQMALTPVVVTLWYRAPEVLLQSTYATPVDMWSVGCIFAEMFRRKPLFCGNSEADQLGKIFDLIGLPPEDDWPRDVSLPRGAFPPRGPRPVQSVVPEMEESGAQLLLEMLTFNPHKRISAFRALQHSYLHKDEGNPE

Sample 1 — Substitution: R155P; technique: DHFR PCA, deep sequencing; matrix: yeast; baseline: wild-type fitted maximum; reading: higher = stronger binding
Target: ABI1, truncated, D143A, DHFR fusion (Arabidopsis thaliana)
Notes: methotrexate growth selection, single substitutions
Starting sequence: PYL1, truncated, DHFR fusion (Arabidopsis thaliana); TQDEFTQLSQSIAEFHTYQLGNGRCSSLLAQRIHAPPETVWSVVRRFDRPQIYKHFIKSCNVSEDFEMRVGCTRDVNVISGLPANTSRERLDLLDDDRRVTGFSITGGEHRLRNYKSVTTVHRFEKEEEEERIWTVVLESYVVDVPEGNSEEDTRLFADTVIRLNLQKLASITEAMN; partner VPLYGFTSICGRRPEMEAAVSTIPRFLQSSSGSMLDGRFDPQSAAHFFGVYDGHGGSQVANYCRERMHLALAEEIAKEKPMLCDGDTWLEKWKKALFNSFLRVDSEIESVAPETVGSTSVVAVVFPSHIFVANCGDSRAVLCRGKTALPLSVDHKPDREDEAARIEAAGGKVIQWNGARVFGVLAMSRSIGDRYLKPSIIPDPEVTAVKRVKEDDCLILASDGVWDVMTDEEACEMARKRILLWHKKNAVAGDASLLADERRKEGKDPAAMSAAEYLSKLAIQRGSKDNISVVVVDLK
with: (+)-ABA 0.39 µM — “relative binding score”: -8.94%.
with: (+)-ABA 710 µM — “relative binding score”: -9.28%.
The “relative binding score” was -3.44% (with: (+)-ABA 0.0091 µM).
The “relative binding score” was -9.26% (with: (+)-ABA 17 µM).
with: (+)-ABA 2500 µM — “relative binding score”: 20.4%.
It gave 5.55% for “relative binding score” (with: (+)-ABA 58 µM).

Sample 2 — technique: RNA Bind-n-Seq; molecule type: RNA; matrix: in vitro; tested at: not given; baseline: input RNA pool; reading: higher = stronger binding
Target: RING finger protein unkempt homolog, zinc fingers 1-6, GST-SBP tag (UNK, Homo sapiens, UniProt Q9C0B0, residues 30-357)
UniProt Q9C0B0, sequence (30-357, looked up): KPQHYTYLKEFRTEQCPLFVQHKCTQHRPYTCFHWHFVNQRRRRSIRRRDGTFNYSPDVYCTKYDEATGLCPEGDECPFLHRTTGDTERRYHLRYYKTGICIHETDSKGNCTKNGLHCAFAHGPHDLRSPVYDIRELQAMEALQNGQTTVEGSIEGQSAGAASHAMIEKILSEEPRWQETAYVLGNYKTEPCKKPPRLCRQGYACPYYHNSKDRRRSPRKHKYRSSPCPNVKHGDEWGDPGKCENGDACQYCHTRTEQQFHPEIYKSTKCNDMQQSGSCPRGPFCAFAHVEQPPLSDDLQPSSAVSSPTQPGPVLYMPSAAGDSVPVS
Notes: RNA with constant flanks, human and mouse sites, ends assumed
All sequences stand within: GGGAGUUCUACAGUCCGACGAUC … CAACAGAGGAUUGAGCAUCA
With `GCGCACGCGCGCCCCGCCCAGCCUGCUUUCCCUCCGCGCCCUCCCCUCUCCUUUCUCCCUCUCAGAACCUUCCUGCCGUCGCGUUUGCACCUCGCUGCUCCAGCCUCUGGGGCGCAUUCC` the bound/input enrichment was 0.384 ratio.
`GAAGAAAGUGAAACUGAUUCCAGCUGUUCUACACCUCUUCGGUUCAAUGAGUCCUUUAGCUUAUCUCAAGGGUUGCUGCAGUUGGAAAUGCUGCAAGAAAAGCUCAAGGAACUGGAAGAA` gave a bound/input enrichment of 0.227 ratio.
`GGCUAAGGAGUAUUGGACCCAGCGGCGACAAGAACGUUUUCGGGUUUUGUUUUUGUUUUCAAUUCUGUCUAGAUGCGAAUUUUGUGCCUGCUCCUAUCUGCUCCCCUGUACCCCUCAGCU` gave a bound/input enrichment of 0.158 ratio.
`AGCAAUGAAAAGACAGCCCUCCUCCCAGCCCCCACCUCACUAGGAGACACGAACGUUACCGUAGAAGAGCAAUUUAACUCAAUAAAUUUAUCUUUUCAGGAUGAUCCAGACUCCAGUCCC` has a bound/input enrichment of 0.325 ratio.
`AAGAAAAUCAGUACUCCUGUUGAUGUCAAUAACCGUGAGAUGAUGUUGAGCAUCAUCAAUAGCUCUAUUACUACAAAAGUCAUCAGUCGGUGGUCCUCCUUGGCAUGCAACAUUGCACUG` gave a bound/input enrichment of 0.22 ratio.
With `GAGUUUAGUUAACUUAUAGUCAGCACAUAGUAGUAAGUAUGUUUAUCCCUGUGUUCUCUAACUAGGAAGUCUGGCUUUAAAGGUUUUUUAAAGUUUCCUCUAAUAUUUUGAUCAAAGGUC` the bound/input enrichment was 3.29 ratio.
With `GCUGGAGAGGACUCAGCUCUGGGAGCUGAGCUCUGCGAGGAGACCCCUGUGAAUGACAACUCAUCCAUUGUGGUACGCAUCGCACCUGAGGAAAGGCAGAAAUAUGAGGAAGAGAUCCGC` the bound/input enrichment was 0.186 ratio.
`GACCCUUACUUCCACGAUCGUGUUGCUUCCUUCUAUGAAGGUCAGGUUGCAAUAUGGGAUCUUAGAAAAUUUGAGAAGCCAGUUUUGACUUUGACUGAACAACCAAAGCCCUUGACAAAG` has a bound/input enrichment of 0.292 ratio.

Sample 3 — technique: RNA Bind-n-Seq; molecule type: RNA; matrix: in vitro; tested at: 90 pmol; notes: 4-mer, random 30-nt RNA, single round; baseline: input library; reading: higher = stronger binding
Target: Eukaryotic initiation factor 4A-I (EIF4A1, Homo sapiens, UniProt P60842, residues 1-406, full length assumed)
UniProt P60842, sequence (whole entry, looked up): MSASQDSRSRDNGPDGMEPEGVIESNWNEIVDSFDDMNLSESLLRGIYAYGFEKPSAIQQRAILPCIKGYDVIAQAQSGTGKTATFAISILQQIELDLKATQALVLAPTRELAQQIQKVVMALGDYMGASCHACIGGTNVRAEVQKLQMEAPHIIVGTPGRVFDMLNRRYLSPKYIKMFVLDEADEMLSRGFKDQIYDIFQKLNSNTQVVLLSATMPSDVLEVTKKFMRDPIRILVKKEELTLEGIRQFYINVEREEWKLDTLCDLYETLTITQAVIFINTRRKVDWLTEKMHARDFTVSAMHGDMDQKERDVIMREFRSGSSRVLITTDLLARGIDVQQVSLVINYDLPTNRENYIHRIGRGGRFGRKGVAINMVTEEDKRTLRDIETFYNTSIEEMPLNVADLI
With: 3 µM iPr-DMDA-PatA, 2 mM ADP, 2 mM phosphate
`CCAA` gave a 4-mer enrichment of 1.14 fold.
`UCGC` has a 4-mer enrichment of 0.841 fold.
With `AGCC` the 4-mer enrichment was 0.935 fold.
With `AGAA` the 4-mer enrichment was 1.53 fold.
For `UUUU`, the 4-mer enrichment was 1.16 fold.
The 4-mer enrichment of `CAUU` is reported as 1 fold.
`AACU` has a 4-mer enrichment of 1.25 fold.
`UUCU` has a 4-mer enrichment of 1.03 fold.

Single results of other studies
`COc1ccc(COc2ccc(Cc3cnc(N)nc3N)cc2OC)cc1` has a remaining activity of 107% (Cyclin-dependent kinase 4, with cyclin D3 (CDK4, Homo sapiens, UniProt P11802); enzyme activity, inhibitor; 0.5 µM; baseline: control).

Repeated from above (sample 3):
With `AGCC` the 4-mer enrichment was 0.935 fold.
With `AGAA` the 4-mer enrichment was 1.53 fold.
For `UUUU`, the 4-mer enrichment was 1.16 fold.
